Experimental data of several laboratories.
Numbers after ± are the reported error.

Sequences of proteins named here, by UniProt entry; tags and fusion partners are left off. Residues count along the entry.
UniProt P55072, whole entry: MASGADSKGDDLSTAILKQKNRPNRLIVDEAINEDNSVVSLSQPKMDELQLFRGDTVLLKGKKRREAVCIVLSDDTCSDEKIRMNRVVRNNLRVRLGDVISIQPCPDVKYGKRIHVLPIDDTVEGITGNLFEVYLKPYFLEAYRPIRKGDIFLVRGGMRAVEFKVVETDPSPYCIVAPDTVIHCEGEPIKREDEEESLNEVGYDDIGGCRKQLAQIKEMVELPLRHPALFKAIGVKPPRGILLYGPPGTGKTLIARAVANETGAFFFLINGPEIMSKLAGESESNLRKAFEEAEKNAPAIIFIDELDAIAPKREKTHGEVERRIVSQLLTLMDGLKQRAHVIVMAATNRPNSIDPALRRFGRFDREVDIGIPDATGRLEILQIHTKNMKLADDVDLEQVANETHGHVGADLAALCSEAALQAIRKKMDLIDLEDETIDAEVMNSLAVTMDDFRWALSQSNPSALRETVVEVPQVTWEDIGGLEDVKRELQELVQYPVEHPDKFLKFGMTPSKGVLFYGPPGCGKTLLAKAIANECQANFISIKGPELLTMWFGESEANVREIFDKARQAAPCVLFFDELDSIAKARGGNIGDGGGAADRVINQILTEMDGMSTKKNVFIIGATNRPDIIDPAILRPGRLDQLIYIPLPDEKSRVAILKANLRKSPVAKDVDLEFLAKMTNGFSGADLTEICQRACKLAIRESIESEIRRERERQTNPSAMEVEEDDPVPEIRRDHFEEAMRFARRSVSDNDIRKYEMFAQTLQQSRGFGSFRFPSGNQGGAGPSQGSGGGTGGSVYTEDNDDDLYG
UniProt O96693, 73-488 limits assumed: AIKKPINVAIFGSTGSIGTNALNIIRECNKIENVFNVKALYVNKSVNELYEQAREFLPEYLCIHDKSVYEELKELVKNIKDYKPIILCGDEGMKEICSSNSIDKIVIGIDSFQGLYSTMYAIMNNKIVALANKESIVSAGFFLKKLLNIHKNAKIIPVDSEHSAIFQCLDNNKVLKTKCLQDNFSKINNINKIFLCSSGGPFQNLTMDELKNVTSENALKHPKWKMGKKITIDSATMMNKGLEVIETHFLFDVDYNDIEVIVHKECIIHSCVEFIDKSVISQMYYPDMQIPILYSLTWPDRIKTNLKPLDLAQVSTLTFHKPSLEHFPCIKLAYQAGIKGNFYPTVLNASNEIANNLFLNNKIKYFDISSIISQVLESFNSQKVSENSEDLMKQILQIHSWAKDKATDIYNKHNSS
UniProt P14902, whole entry: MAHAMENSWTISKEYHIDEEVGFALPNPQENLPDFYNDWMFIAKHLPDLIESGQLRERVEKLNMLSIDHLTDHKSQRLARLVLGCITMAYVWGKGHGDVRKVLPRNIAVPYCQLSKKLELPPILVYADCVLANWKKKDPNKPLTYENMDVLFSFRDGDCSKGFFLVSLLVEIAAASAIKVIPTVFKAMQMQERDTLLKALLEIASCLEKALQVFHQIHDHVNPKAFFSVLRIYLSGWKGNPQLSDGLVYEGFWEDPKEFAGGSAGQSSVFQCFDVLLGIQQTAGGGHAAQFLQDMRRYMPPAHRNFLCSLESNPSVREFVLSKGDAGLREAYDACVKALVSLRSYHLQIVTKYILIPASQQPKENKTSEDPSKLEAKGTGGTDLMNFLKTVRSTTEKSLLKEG
UniProt P09874, whole entry: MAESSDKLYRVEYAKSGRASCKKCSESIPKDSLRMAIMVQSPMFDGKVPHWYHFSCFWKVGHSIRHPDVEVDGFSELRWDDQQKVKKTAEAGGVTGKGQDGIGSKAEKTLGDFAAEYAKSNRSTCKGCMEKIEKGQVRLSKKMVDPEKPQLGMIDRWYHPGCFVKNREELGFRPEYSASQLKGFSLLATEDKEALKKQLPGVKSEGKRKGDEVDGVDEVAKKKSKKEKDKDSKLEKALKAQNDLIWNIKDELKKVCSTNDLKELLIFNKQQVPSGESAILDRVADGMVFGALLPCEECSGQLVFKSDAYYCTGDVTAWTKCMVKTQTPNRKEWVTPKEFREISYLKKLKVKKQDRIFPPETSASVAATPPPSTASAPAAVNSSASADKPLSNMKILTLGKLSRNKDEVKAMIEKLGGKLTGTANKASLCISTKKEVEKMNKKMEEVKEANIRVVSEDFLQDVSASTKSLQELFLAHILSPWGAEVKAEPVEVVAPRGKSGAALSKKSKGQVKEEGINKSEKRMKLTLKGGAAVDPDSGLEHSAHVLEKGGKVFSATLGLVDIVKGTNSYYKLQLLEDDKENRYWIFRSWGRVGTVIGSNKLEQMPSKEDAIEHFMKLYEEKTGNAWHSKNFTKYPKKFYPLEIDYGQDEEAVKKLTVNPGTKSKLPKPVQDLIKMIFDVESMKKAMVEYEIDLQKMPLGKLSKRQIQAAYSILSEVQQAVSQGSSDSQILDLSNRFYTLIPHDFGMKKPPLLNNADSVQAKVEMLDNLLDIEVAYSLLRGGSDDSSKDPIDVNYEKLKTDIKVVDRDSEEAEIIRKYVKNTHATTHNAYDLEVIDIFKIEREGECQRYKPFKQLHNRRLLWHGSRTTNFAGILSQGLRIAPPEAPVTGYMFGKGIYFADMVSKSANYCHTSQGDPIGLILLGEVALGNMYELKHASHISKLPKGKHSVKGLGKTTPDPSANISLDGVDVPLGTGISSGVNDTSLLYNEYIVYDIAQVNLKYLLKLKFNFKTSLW
UniProt Q9NR97, 27-1041 limits assumed: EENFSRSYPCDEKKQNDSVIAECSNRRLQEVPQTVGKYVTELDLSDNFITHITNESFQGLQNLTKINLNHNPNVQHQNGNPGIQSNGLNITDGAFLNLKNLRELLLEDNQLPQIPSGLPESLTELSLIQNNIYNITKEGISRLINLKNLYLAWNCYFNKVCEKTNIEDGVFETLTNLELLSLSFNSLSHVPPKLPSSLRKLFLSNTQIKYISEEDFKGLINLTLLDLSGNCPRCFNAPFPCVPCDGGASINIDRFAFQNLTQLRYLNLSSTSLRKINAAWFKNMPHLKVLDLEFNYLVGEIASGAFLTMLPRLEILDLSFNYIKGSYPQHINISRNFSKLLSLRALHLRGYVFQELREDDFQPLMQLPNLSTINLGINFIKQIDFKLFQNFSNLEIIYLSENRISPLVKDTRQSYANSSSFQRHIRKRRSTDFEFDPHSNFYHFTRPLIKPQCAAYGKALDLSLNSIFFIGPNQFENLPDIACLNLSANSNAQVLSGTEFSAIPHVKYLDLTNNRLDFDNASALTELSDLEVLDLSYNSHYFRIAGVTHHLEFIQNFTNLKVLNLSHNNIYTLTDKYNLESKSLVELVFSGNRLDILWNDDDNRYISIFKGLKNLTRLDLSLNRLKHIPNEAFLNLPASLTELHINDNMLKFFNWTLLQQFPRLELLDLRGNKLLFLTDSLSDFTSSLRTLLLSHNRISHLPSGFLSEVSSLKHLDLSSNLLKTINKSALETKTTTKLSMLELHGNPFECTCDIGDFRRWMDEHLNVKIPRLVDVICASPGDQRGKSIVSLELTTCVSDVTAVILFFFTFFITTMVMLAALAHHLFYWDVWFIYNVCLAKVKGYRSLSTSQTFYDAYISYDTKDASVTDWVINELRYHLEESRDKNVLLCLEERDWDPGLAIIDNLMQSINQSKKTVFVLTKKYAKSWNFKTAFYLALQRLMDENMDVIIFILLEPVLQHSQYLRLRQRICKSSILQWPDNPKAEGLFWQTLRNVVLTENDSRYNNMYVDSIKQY
UniProt Q2M2I8, whole entry: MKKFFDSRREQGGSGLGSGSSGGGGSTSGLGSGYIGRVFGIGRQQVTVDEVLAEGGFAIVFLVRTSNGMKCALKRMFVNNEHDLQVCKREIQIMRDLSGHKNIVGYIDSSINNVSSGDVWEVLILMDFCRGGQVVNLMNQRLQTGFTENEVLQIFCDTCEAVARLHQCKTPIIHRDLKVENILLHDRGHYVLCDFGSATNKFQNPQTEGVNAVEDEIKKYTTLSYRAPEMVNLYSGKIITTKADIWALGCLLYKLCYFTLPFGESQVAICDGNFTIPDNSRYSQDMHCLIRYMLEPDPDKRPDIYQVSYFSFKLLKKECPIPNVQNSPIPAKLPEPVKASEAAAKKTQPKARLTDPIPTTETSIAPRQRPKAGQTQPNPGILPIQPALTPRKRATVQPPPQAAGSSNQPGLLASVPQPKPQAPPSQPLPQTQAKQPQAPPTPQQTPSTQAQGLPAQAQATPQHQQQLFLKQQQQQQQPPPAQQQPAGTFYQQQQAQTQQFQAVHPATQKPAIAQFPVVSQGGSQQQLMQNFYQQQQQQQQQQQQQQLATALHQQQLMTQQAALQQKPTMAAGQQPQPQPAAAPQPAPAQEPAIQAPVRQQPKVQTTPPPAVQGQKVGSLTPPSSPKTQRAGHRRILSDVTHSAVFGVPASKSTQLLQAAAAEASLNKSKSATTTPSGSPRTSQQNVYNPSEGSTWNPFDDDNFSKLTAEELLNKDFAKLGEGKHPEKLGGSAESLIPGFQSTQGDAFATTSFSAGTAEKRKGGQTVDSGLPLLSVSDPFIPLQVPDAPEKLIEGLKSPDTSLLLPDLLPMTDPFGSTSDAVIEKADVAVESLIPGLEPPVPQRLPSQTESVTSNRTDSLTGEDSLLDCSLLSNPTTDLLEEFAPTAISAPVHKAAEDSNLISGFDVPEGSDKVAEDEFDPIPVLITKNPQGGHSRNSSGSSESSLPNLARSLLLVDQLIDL
UniProt Q13304, whole entry: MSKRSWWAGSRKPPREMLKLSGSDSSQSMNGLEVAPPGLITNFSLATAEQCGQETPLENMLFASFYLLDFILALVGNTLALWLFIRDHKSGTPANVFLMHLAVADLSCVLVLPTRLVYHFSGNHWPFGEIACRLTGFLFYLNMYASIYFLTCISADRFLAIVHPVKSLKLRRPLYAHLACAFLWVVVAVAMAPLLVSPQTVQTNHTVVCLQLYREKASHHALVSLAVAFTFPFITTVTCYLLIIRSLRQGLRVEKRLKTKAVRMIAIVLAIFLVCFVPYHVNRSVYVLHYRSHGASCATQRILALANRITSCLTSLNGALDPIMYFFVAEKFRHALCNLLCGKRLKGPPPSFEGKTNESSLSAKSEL
UniProt Q9H3R0, whole entry: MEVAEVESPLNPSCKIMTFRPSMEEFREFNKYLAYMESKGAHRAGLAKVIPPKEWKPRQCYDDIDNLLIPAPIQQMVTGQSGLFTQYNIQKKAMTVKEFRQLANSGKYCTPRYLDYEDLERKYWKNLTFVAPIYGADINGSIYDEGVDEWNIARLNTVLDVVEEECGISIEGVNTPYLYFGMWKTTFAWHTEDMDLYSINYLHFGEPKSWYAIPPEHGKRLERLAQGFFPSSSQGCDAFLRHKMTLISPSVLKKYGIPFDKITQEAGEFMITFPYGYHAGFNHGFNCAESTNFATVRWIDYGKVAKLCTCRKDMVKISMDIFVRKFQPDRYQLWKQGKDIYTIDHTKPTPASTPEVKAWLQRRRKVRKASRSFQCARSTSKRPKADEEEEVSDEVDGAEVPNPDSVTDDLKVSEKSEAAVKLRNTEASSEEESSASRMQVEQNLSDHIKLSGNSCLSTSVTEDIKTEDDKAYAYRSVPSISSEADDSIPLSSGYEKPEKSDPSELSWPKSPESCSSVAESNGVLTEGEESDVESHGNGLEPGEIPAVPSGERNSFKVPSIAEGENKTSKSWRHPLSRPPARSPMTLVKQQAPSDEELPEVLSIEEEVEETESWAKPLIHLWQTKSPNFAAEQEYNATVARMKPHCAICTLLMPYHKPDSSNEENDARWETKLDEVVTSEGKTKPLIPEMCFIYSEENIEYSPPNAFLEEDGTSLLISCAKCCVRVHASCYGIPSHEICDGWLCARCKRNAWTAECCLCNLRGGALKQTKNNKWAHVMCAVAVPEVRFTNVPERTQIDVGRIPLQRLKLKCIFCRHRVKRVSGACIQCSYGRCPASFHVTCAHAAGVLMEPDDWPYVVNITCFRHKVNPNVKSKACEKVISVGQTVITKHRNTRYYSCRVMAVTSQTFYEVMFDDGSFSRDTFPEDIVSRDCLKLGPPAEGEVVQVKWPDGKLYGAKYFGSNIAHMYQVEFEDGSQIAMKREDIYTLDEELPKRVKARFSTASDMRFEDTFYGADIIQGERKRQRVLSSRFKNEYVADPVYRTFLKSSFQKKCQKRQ
UniProt A4HTR0, 1-443: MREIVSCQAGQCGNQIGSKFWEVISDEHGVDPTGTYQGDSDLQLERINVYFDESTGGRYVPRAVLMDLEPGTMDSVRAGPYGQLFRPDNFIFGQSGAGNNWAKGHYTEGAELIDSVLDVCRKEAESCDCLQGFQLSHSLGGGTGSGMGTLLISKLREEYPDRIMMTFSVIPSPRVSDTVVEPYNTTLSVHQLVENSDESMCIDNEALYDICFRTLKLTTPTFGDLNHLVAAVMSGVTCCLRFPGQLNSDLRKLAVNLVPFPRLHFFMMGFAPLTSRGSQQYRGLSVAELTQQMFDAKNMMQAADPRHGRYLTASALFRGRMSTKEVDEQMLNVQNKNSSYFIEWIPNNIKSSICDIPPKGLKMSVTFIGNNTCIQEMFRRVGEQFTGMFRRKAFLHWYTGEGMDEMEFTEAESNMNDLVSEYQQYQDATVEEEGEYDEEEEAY

Compound = CC(C)N1CCN(CCNC2CCN(c3cccc(-c4cc5cc([N+](=O)[O-])ccc5[nH]4)c3)CC2)CC1; target = Transitional endoplasmic reticulum ATPase (VCP, Homo sapiens, UniProt P55072); assay = ATPase activity, inhibitor, ADP-Glo; conditions = together with: ATP 100 µM; IC50 = 0.047 µM
Compound = COc1ccc(SCC(=O)Nc2ccc3nc(SCC(=O)NCC(C)C)sc3c2)cc1; target = Estrogen receptor (ESR1, Homo sapiens, UniProt P03372); assay = reporter gene, antagonist; system = HEC-1 transfected ERα luciferase reporter; IC50 = > 50 µM
Compound = CS(=O)(=O)Oc1cccc(/C=C/c2c[nH]c3ccc(C#N)cc23)c1; target = Amyloid-beta precursor protein, amyloid-beta peptide (APP, Homo sapiens, UniProt P05067); assay = Aβ42 oligomerisation, ELISA; IC50 = 7.3 µM
Compound = O=C(c1ccccc1)N(O)CCCP(=O)(O)O; target = 1-deoxy-D-xylulose 5-phosphate reductoisomerase, apicoplastic (DXR, Plasmodium falciparum, UniProt O96693); IC50 = 0.232 µM
Compound = COC(=O)/C(=C/c1c[nH]c2ccc(F)cc12)c1ccc(NS(C)(=O)=O)cc1; target = Indoleamine 2,3-dioxygenase 1 (IDO1, Homo sapiens, UniProt P14902); assay = enzyme activity, inhibitor; IC50 = 7.8 µM
Compound = O=C1OC2CC1N(C(=O)c1cc(Cc3n[nH]c(=O)c4ccccc34)ccc1F)C2 (stereo not shown); target = Poly [ADP-ribose] polymerase 1 (PARP1, Homo sapiens, UniProt P09874); assay = enzyme activity; conditions = experiment Exp1; IC50 = 0.000544 µM
Compound = O=C(N1CCN(c2ccc([N+](=O)[O-])c3ncccc23)CC1)C12CC3CC(CC(Br)(C3)C1)C2; target = Toll-like receptor 8 (TLR8, Homo sapiens, UniProt Q9NR97); assay = reporter gene, inhibitor, SEAP reporter; system = HEK-Blue TLR8; IC50 = 3.89 ± 0.78 µM
Compound = C/C=C/c1cc(-c2nn(-c3nc(C(=O)O)cs3)c(CC3CC3)c2Cc2ccc(S(N)(=O)=O)c(F)c2)ccc1F; target = L-lactate dehydrogenase A chain (LDHA, Homo sapiens, UniProt P00338); assay = enzyme activity, inhibitor; IC50 = 0.008 µM
Compound = CC(C)(CO)c1nc(-c2cccc(Nc3ncnn4ccc(CN5CCC(N)CC5)c34)c2)no1; target = AP2-associated protein kinase 1 (AAK1, Homo sapiens, UniProt Q2M2I8); IC50 = 0.015 µM
Compound = O=C(Nc1ccc(-c2nc3ccccc3[nH]2)cc1)c1ccco1; target = Moesin, with CD44 (Homo sapiens, UniProt P26038); assay = MSN-CD44 interaction, inhibitor, TR-FRET; conditions = together with: CD44; IC50 = 33.8 µM
Compound = COC(=O)C[C@@H]1N=C(c2ccc(Cl)cc2)c2c(sc(C(=O)NCCOCCNC(C)=O)c2C)-n2c(C)nnc21; target = Bromodomain-containing protein 4, BD1 (BRD4, Homo sapiens, UniProt O60885); assay = binding, competitor, AlphaScreen; conditions = together with: 20 nM His-BRD4; IC50 = 0.115 µM
Compound = CCOC(=O)c1cccc(C(NS(=O)(=O)c2cccs2)C(=O)Nc2ccc(Cl)cc2)c1 (stereo not shown); target = Uracil nucleotide/cysteinyl leukotriene receptor, long isoform (GPR17, Homo sapiens, UniProt Q13304); assay = calcium mobilization, antagonist; system = 1321-N1; IC50 = 15.7 ± 1.32 µM
Compound = CC(C)C[C@@H]1[C@H](C(=O)NCCO)C[C@@H]2CN(Cc3ccncc3)CC(=O)N21 (relative stereo); target = Lysine-specific demethylase 4C (KDM4C, Homo sapiens, UniProt Q9H3R0); assay = enzyme activity, inhibitor, AlphaLISA; conditions = together with: H3K9me3 nucleosome; IC50 = 6.84 µM
Compound = O=C(O)CC[C@H](NC(=O)c1cc(C(=O)O)cc([C@H]2CCN[C@@H]2C(=O)O)c1)C(=O)O; target = Glutamate receptor ionotropic, NMDA 2D, with GluN1 (Rattus norvegicus, UniProt Q62645); assay = ion current, antagonist, two-electrode voltage clamp; system = Xenopus oocytes; conditions = GluN1/GluN2D, together with: glycine 100 µM and glutamate 1 µM; IC50 = 23.5 ± 1 µM
Compound = CN(c1cccnc1)c1ccc2c(c1)c(=O)c(C(N)=O)cn2-c1ccc(F)cc1; target = Metabotropic glutamate receptor 2 (Grm2, Rattus norvegicus, UniProt P31421); assay = calcium mobilization, negative allosteric modulator; IC50 = 0.318 µM
Compound = COc1cc([C@@H]2c3cc4c(cc3[C@@H](OC3CCCCC3)[C@H]3COC(=O)[C@H]23)OCO4)cc(OC)c1OC; target = Tubulin alpha/beta heterodimer (Leishmania infantum, UniProt A0A381MCS3+A4HTR0); assay = tubulin polymerization, inhibitor; conditions = 37 °C, together with: tubulin 1.2 mg/mL; IC50 = 3.4 ± 0.5 µM
Compound = CC(C)CC(C(=O)OCC(=O)Nc1cccc(Cl)c1)N1C(=O)C2CC=CCC2C1=O (stereo not shown); target = Cruzipain (Trypanosoma cruzi, UniProt P25779); assay = enzyme activity, inhibitor, fluorogenic substrate cleavage; conditions = 0.01% Triton X-100, together with: Z-FR-AMC; IC50 = 5 µM
Compound = Cc1cc(O)n2nc(C(F)(F)F)c(-c3ccccc3)c2n1; target = Cyclic GMP-AMP synthase (CGAS, Homo sapiens, UniProt Q8N884); assay = enzyme activity, inhibitor, ATP depletion; IC50 = 0.52 µM
Compound = O=C(NCc1ccc(Cl)cc1)[C@@H]1C[C@@H](O)CN1C(=O)c1cccc(F)c1; target = von Hippel-Lindau disease tumor suppressor, with elongin B, C (VHL, Homo sapiens, UniProt P40337); assay = binding, fluorescence polarization; conditions = 10% DMSO, together with: FAM-HIF1α peptide tracer; IC50 = 38.5 ± 0.5 µM

For quick reference, copied from above:
Compound = O=C(c1ccccc1)N(O)CCCP(=O)(O)O; target = 1-deoxy-D-xylulose 5-phosphate reductoisomerase, apicoplastic (DXR, Plasmodium falciparum, UniProt O96693); IC50 = 0.232 µM
Compound = COC(=O)/C(=C/c1c[nH]c2ccc(F)cc12)c1ccc(NS(C)(=O)=O)cc1; target = Indoleamine 2,3-dioxygenase 1 (IDO1, Homo sapiens, UniProt P14902); assay = enzyme activity, inhibitor; IC50 = 7.8 µM
